Published values from different studies.
Lines come from different studies, so protocols differ.

| Structure (SMILES) | test | system | setting | scale | quantity | value |
| --- | --- | --- | --- | --- | --- | --- |
| Cn1ncnc1[C@H]1c2n[nH]c(=O)c3cc(F)cc(c23)N[C@@H]1c1ccc(F)cc1 | – | human patients, plasma | oral, 600 µg/m2 twice daily, day 1, monotherapy, dose level DL5, median | – | Tmax | 2 h |
| C=CC(=O)Nc1cc(Nc2nccc(-c3cn(C)c4ccccc34)n2)c(OC)cc1N(C)CCN(C)C | – | human, plasma | oral, cycle 3 day 1, osimertinib plus chemotherapy, randomized arm | – | Tmax at steady state | 4.5 h |
| O=C(Nc1cnccc1Cl)N1CCN(Cc2ccc3c(c2)OC(F)(F)O3)CC1 | – | human healthy young men, plasma | oral, 75 mg once daily, day 10, multiple dose median | – | tmax | 3 h |
| COc1cc(C(=O)NC2CCN(C)CC2)c(F)cc1Nc1ncc(C(F)(F)F)c(Oc2cccc3c2C(=O)N(C)C3)n1 | – | human, Taiwanese, plasma | oral, 200 mg once daily multiple dose, median | – | Tmax steady state | 2 h |
| COc1cc(C(=O)NC2CCN(C)CC2)c(F)cc1Nc1ncc(C(F)(F)F)c(Oc2cccc3c2C(=O)N(C)C3)n1 | – | human patients, plasma | oral, 50 mg once daily repeated, median | – | Tmax at steady state | 1 h |
| Cc1nc2ccc(F)cc2n1-c1nc(N)c(F)c(Nc2ccc(C(F)(F)F)cc2)n1 | – | human patients, plasma | oral, 200 mg twice weekly, cycles 1 and 2 pooled | – | Tmax median | 3.94 h |
| COC(=O)N[C@@H](C)CNc1nccc(-c2cn(C(C)C)nc2-c2cc(Cl)cc(NS(C)(=O)=O)c2F)n1 | – | humans, plasma | oral, day 1, single dose, together with: binimetinib | – | Tmax median | 1.87 h |
| Cc1cn(C(=O)c2c(-c3c(Cl)cc(Cl)cc3Cl)noc2C(C)(C)F)c2cccc(/C=C/C(=O)O)c12 | – | human patients | 250 mg bid, cycle 8 day 1 | – | Tmax | 2.25 h |
| COc1ncc(-c2nc3c(n2C(C)C)[C@H](c2ccc(Cl)cc2)N(c2cc(Cl)cn(C)c2=O)C3=O)c(OC)n1 | LC-MS/MS, noncompartmental | human, plasma | oral, 2 mg, C1D8, low-dose, median | – | Tmax | 2.9 h |
| CCNCc1cc(Nc2ccnc3cc(Cl)ccc23)ccc1O | – | humans, both sexes, plasma | oral, outlier included | reference: fixed over non-fixed combination | Tmax ratio | 0.82 |
| CCO | – | human, breath | 0.5 g/kg, together with: placebo | – | Tmax (median) | 0.57 h |
| COc1c(N2C[C@@H]3CCCN[C@@H]3C2)c(F)cc2c(=O)c(C(=O)O)cn(C3CC3)c12 | – | human, plasma | oral, 400 mg, day 5 | – | tmax at steady state | 2 h |
| Cc1cc(Nc2ncnc3ccc(NC4=NC(C)(CO)CO4)cc23)ccc1Oc1ccn2ncnc2c1 (stereo not drawn) | – | human, plasma | tucatinib, day 10, together with: rifampin once daily | – | Tmax (median) | 1 h |
| C[C@@H](Cn1ccc(-c2ccc(C#N)c(Cl)c2)n1)NC(=O)c1cc([C@@H](C)O)[nH]n1 | – | human, fasted, plasma | oral, 300 mg darolutamide tablet, median | – | tmax | 1.75 h |
| Cc1cc(-c2nnc(N)nc2-c2ccc(F)cc2)cc(Cl)n1 | – | human patients, plasma | oral, 100 mg nanosuspension, single dose, median | – | Tmax | 1 h |
| Cc1ccc([C@@H]2O[C@H](CO)[C@@H](O)[C@H](O)[C@H]2O)cc1Cc1ccc(-c2ccc(F)cc2)s1 | – | human, maintenance hemodialysis patients | oral, 100 mg once daily, steady state, median | – | tmax | 2.8 h |
| CC(=O)c1cc(C(=O)N[C@@H](C)Cn2ccc(-c3ccc(C#N)c(Cl)c3)n2)[nH]n1 | – | human, fasted, plasma | oral, 300 mg darolutamide tablet, median | – | tmax | 2 h |
| Cc1cc(C)c(CNC(=O)c2cc(Cl)c3c(c2C)O[C@@](C)([C@H]2CC[C@H](N(C)C)CC2)O3)c(=O)[nH]1 | – | human, plasma | oral, 200 mg, cycle 1 day 15 | – | Tmax total drug | 3.79 h |
| O=C(COc1ccc(Cl)cc1)NC12CC(c3nnc([C@H]4C[C@@H](OC(F)(F)F)C4)o3)(C1)C2 | – | healthy human both sexes, plasma | oral, 45 mg once daily, day 1, median fasted | – | tmax | 14 h |
| C=CC(=O)Nc1cc(Nc2nccc(-c3c[nH]c4ccccc34)n2)c(OC)cc1N(C)CCN(C)C | – | human, plasma | cycle 3 day 1, osimertinib plus chemotherapy, randomized arm | – | Tmax at steady state | 4 h |
| CCCOc1ccc(NC(=O)CN2CCN(C)CC2)cc1-c1nc(CC)c(CC)c(=O)[nH]1 | – | human, fasting, plasma | oral, 10 mg, together with: placebo | – | Tmax (median) | 2 h |
| CC#CC(=O)N1CC[C@@H](n2c(=O)n(-c3ccc(Oc4ccccc4)cc3)c3c(N)ncnc32)C1 | – | human, fasted, plasma | oral, 300 mg twice daily, cycle 1 day 28 | – | Tmax (median) | 2.06 h |
| COc1cc(N2CCC(N3CCN(C)CC3)CC2)ccc1Nc1ncnc(Nc2ccccc2S(=O)(=O)C(C)C)n1 | – | human, plasma | oral, 125 mg, day 1 | – | tmax | 2.53 h |
| N#Cc1ccc2c(c1)[C@H]1CCCN(C(=O)c3ccc4[nH]cnc4c3)[C@H]1C2 | – | human, plasma | oral, 80 mg once daily, steady state, median | – | tmax steady state | 0.834 h |
| C[C@@H](Oc1ccc(S(C)(=O)=O)cc1C(=O)N1C[C@@H]2C[C@]2(c2cc(C(F)(F)F)on2)C1)C(F)(F)F | – | healthy human volunteers | oral, 10 mg single, median | reference: fasted, fed earlier | Tmax difference | 1 h |
| CN(C)N=Nc1[nH]cnc1C(N)=O | – | human patients, plasma | intravenous, 1000 mg/m^2 over 1 h, cycle 1 day 1 after infusion start, given alone | – | Tmax (median) | 1 h |
| Cc1noc(C)c1-c1cc(C(O)(c2ccccn2)c2ccccn2)c2nc(C3CC3)[nH]c2c1 | – | human male patients, fasted, plasma | oral, 3 mg once daily, cycle 1 day 8 | – | Tmax | 0.66 h |

Excerpt of the above:
| Structure (SMILES) | test | system | setting | scale | quantity | value |
| --- | --- | --- | --- | --- | --- | --- |
| COc1cc(N2CCC(N3CCN(C)CC3)CC2)ccc1Nc1ncnc(Nc2ccccc2S(=O)(=O)C(C)C)n1 | – | human, plasma | oral, 125 mg, day 1 | – | tmax | 2.53 h |
| N#Cc1ccc2c(c1)[C@H]1CCCN(C(=O)c3ccc4[nH]cnc4c3)[C@H]1C2 | – | human, plasma | oral, 80 mg once daily, steady state, median | – | tmax steady state | 0.834 h |
| C[C@@H](Oc1ccc(S(C)(=O)=O)cc1C(=O)N1C[C@@H]2C[C@]2(c2cc(C(F)(F)F)on2)C1)C(F)(F)F | – | healthy human volunteers | oral, 10 mg single, median | reference: fasted, fed earlier | Tmax difference | 1 h |
